Published values collected from several papers.
Each numbered part is a random draw from the data of one study; scales do not carry over between parts. Values joined by “and” are separate records of one study, mostly repeats; a detail may differ.
Sequence of UniProt Q9H2K8 (whole entry, looked up): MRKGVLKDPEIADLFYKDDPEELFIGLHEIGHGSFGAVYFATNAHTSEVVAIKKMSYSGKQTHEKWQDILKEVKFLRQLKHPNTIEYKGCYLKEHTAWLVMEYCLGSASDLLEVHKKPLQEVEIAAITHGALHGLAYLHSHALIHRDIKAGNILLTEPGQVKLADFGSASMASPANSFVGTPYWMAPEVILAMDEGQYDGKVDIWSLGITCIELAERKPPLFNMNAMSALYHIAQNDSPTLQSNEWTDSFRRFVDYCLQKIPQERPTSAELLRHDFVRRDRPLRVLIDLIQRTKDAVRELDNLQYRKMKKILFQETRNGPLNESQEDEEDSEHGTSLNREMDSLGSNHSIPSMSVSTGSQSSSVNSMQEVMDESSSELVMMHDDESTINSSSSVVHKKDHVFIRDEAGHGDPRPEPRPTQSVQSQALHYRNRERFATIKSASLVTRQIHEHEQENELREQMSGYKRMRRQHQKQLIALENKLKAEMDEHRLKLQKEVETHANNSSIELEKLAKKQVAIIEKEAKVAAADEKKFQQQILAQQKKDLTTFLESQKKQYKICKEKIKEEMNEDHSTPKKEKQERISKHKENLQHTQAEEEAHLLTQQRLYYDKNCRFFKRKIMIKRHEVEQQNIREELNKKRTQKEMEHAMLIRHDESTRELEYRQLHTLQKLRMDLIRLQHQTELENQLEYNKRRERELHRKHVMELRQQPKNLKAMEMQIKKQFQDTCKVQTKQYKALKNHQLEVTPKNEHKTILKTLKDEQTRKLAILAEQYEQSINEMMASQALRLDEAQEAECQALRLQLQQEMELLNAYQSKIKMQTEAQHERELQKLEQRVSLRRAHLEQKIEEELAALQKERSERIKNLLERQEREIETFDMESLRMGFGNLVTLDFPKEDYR
Sequence of UniProt P50613 (whole entry, looked up): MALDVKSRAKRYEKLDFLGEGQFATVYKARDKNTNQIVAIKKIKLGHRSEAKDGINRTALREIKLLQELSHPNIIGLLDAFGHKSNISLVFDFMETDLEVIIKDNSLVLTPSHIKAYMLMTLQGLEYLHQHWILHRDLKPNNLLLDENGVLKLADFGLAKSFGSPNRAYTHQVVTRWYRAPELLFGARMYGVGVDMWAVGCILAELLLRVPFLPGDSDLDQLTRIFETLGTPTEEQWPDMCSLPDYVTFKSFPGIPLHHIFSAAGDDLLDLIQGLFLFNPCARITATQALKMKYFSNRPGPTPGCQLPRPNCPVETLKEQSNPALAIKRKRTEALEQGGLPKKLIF
Sequence of UniProt Q9UBE8 (whole entry, looked up): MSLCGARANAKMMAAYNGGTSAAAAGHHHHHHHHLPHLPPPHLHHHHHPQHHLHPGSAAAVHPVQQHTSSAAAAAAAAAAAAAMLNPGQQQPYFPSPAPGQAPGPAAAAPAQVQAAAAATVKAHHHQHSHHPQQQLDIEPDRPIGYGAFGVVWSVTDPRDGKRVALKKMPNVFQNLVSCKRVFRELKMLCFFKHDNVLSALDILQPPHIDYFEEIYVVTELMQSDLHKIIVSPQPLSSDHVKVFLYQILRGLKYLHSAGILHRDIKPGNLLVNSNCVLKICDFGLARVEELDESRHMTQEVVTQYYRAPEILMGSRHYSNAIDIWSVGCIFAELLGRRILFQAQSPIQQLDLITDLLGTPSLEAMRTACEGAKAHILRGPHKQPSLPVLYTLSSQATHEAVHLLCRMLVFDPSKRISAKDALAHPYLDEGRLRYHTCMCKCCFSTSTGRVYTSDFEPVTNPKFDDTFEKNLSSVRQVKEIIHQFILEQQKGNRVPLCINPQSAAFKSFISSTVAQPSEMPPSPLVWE
Sequence of UniProt Q00526 (whole entry, looked up): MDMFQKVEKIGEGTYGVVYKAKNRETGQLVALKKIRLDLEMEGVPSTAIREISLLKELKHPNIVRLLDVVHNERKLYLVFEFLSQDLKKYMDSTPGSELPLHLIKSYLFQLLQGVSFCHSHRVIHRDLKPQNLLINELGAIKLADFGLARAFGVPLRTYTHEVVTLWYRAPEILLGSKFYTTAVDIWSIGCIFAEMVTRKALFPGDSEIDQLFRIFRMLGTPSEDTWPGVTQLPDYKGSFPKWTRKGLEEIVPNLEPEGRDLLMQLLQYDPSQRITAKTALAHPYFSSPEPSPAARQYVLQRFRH
Sequence of UniProt Q8NG66 (whole entry, looked up): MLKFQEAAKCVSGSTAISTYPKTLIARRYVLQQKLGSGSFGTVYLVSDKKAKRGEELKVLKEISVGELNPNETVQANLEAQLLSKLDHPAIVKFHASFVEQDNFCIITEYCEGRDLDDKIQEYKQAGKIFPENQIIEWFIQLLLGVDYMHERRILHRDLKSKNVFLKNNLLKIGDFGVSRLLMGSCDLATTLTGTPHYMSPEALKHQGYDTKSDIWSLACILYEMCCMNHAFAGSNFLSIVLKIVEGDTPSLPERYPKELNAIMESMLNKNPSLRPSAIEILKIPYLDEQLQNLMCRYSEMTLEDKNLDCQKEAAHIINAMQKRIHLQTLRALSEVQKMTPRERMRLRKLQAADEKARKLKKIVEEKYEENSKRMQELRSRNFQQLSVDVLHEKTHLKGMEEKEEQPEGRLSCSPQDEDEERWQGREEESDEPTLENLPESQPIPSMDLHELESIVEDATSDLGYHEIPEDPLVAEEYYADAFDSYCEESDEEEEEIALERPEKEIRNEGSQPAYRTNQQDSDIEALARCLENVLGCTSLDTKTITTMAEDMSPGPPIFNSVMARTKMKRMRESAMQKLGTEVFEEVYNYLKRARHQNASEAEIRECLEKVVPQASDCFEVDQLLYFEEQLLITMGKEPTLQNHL
Sequence of UniProt P14616 (whole entry, looked up): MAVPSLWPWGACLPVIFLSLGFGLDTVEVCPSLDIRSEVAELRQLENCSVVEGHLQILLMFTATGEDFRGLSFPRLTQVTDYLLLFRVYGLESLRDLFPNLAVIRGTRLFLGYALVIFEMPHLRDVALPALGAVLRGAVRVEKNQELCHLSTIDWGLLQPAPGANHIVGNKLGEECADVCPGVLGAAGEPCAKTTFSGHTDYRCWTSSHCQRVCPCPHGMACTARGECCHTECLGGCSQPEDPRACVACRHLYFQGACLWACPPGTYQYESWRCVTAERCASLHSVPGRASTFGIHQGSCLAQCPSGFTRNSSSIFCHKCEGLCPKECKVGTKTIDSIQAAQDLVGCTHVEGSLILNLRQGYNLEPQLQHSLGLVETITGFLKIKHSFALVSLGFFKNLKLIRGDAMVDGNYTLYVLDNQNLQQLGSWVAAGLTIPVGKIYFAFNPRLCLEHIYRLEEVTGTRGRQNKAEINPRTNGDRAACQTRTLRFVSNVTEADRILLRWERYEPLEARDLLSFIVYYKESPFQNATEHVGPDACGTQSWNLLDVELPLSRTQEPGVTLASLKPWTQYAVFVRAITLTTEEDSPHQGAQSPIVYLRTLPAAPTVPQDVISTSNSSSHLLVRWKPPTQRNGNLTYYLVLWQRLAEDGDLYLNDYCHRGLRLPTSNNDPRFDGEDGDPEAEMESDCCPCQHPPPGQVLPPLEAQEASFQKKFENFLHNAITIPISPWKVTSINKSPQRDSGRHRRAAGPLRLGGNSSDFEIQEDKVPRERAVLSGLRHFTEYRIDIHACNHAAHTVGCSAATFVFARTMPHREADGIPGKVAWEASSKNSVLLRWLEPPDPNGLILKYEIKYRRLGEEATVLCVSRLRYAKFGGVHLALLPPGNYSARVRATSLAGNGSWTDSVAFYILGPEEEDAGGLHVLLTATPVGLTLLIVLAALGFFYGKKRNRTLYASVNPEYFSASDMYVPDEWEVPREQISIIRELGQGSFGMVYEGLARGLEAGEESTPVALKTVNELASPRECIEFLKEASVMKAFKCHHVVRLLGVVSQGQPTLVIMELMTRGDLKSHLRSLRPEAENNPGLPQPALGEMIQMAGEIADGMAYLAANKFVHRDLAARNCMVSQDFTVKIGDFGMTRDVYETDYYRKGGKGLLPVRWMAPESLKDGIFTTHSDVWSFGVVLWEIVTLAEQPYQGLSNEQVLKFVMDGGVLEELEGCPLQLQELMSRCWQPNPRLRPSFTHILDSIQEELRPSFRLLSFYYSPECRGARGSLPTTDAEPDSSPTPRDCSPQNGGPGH
Sequence of UniProt P06241 (whole entry, looked up): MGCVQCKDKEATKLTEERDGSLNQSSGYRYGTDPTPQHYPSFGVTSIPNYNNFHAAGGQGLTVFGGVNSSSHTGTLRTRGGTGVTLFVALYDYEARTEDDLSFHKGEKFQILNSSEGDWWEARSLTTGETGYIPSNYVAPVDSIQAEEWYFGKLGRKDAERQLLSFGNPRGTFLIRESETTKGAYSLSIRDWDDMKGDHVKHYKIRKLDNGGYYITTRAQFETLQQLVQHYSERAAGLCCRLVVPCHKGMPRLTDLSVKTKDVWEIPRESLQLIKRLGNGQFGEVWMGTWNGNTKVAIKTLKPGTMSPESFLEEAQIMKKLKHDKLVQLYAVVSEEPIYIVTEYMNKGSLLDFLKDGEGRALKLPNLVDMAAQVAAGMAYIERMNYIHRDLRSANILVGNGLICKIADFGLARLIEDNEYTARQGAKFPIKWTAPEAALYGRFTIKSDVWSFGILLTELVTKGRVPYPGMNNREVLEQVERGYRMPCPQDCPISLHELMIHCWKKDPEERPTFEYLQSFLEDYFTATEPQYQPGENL
Sequence of UniProt Q07002 (whole entry, looked up): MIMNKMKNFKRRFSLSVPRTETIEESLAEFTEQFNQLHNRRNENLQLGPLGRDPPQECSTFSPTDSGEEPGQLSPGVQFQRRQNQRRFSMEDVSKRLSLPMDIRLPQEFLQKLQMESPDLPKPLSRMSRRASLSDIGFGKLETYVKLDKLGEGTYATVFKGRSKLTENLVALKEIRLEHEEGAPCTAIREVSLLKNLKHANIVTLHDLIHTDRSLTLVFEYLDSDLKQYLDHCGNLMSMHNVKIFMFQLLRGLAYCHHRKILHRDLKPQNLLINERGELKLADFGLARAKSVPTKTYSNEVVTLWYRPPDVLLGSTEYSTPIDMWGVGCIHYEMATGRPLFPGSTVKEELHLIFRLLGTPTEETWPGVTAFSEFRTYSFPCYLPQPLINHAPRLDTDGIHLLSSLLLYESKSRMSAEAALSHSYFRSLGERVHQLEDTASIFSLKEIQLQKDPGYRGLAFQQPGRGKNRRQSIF

Sample 1
Structure (SMILES): CCS(=O)(=O)c1cc2cc(C[C@](O)(CC(C)(C)c3ccc(F)cc3C(N)=O)C(F)(F)F)[nH]c2cn1
Read-out: cell-free assay
Method: competition with immobilised ligand
Concentration: 1 µM
target | remaining binding [%]
CHEK2 (Homo sapiens, UniProt O96017) | 92
CDKL2 (Homo sapiens, UniProt Q92772) | 93
PIK3CA (Homo sapiens, UniProt P42336, Q546K) | 80
FGFR1 (Homo sapiens, UniProt P11362) | 94
Ribosomal protein S6 kinase alpha-5, N-terminal kinase domain (RPS6KA5, Homo sapiens, UniProt O75582) | 94
KIT (Homo sapiens, UniProt P10721, V559D/V654A) | 79
CDK18 (Homo sapiens, UniProt Q07002) | 100
Tyrosine-protein kinase ABL1, phosphorylated (ABL1, Homo sapiens, UniProt P00519, H396P) | 89
PLK4 (Homo sapiens, UniProt O00444) | 80
MAP2K5 (Homo sapiens, UniProt Q13163) | 100
SNRK (Homo sapiens, UniProt Q9NRH2) | 100
TAOK3 (Homo sapiens, UniProt Q9H2K8) | 86
EGFR (Homo sapiens, UniProt P00533, del746-750) | 89
CDK7 (Homo sapiens, UniProt P50613) | 95
STK26 (Homo sapiens, UniProt Q9P289) | 94

Sample 2
Compound: C=CC(=O)N1CCC[C@@H](n2nc(-c3ccc(Oc4ccccc4)cc3)c3c(N)ncnc32)C1
Action: inhibitor
Concentration: 1 µM
target | test | inhibition
Ribosomal protein S6 kinase alpha-6, N-terminal kinase domain (RPS6KA6, Homo sapiens, UniProt Q9UK32) |  | 7%
FRK (Homo sapiens, UniProt P42685) | enzyme activity | 92%
PNCK (Homo sapiens, UniProt Q6P2M8) |  | 15%
INSRR (Homo sapiens, UniProt P14616) | enzyme activity | 16%

Sample 3
Structure (SMILES): CC(C)[C@H](CO)Nc1nc(Nc2cccc(Cl)c2)c2ncn(C(C)C)c2n1
Read-out: enzyme activity
Action: inhibitor
Concentration: 0.5 µM
Relative to: control
target | remaining activity [%]
STK25 (Homo sapiens, UniProt O00506) | 116
AKT1 (Homo sapiens, UniProt P31749) | 102
FER (Homo sapiens, UniProt P16591) | 62.9
HIPK1 (Homo sapiens, UniProt Q86Z02) | 103
Cyclin-dependent kinase 3, with cyclin E (CDK3, Homo sapiens, UniProt Q00526) | 34.5
ALK (Homo sapiens, UniProt Q9UM73) | 100
CDC42BPA (Homo sapiens, UniProt Q5VT25) | 92.3
MARK3 (Homo sapiens, UniProt P27448) | 96.6
LIM domain kinase 1 (LIMK1, Homo sapiens, UniProt P53667) | 86.3
ITK (Homo sapiens, UniProt Q08881) | 86.9
MATK (Homo sapiens, UniProt P42679) | 93.1
Insulin receptor (INSR, Homo sapiens, UniProt P06213) | 83
FYN (Homo sapiens, UniProt P06241) | 48.9
FGR (Homo sapiens, UniProt P09769) | 44.3
PASK (Homo sapiens, UniProt Q96RG2) | 93.1
FLT4 (Homo sapiens, UniProt P35916) | 110
NLK (Homo sapiens, UniProt Q9UBE8) | 99.2
PKN1 (Homo sapiens, UniProt Q16512) | 100
NEK11 (Homo sapiens, UniProt Q8NG66) | 67.1
TAOK3 (Homo sapiens, UniProt Q9H2K8) | 91.1
PRKX (Homo sapiens, UniProt P51817) | 97.4

Sample 4
Cell line: mouse MPNST tumor cells
Method: high-content nuclear imaging
Measured: cell number
Concentration: 10 µM
Time: 12 h
Notes: mean of 2 replicates
Relative to: plate mean
Reading: higher = more cells
Structure (SMILES) | nuclei count
CC(c1cc2ccccc2s1)N(O)C(N)=O (stereo not drawn) | 1.92 z-score and 1.55 z-score and 1.9 z-score
CC/C(=C(\c1ccc(O)cc1)c1ccc(OCCNC)cc1)c1ccccc1 | -6.04 z-score
Cn1c([N+](=O)[O-])cnc1COC(N)=O | 1.07 z-score
C[C@]12CCC(=O)C=C1CC[C@@H]1[C@@H]2[C@@H](O)C[C@@]2(C)[C@H]1CC[C@]2(O)C(=O)CO | 3.86 z-score
Cc1cccc(-c2[nH]ncc2-c2ccc(F)c(-c3cnn(CCO)c3)c2)n1 | -3.1 z-score

Repeated from above (sample 3):
target | remaining activity [%]
FYN (Homo sapiens, UniProt P06241) | 48.9
MATK (Homo sapiens, UniProt P42679) | 93.1
LIM domain kinase 1 (LIMK1, Homo sapiens, UniProt P53667) | 86.3
CDC42BPA (Homo sapiens, UniProt Q5VT25) | 92.3
ITK (Homo sapiens, UniProt Q08881) | 86.9
